# Measured values of several laboratories.
# Protocols differ between the studies behind these lines. ± marks the error that the study gave.
SMILES,assay,system,conditions,how to read,quantity,value
CC(C)(C(=O)N1CCOc2c(C#N)cncc2C1)C(F)F,item: blood creatine phosphokinase increased,"healthy humans, both sexes","oral, 20 mg single dose",,subjects with TEAE,0%
CCOC(=O)C1=C(CN2CCC[C@@H]2C(=O)Nc2ccc(B(O)O)cc2)NC(c2nccs2)=N[C@H]1c1ccc(F)cc1Br,,"ICR mouse, plasma","intravenous, 2 mg/kg",,volume of distribution (Vz),4.7 ± 1.26 L/kg
C[C@@H](O)CCOC(=O)C[C@@H](C)O,,human,"oral drink, dose not given, 30 min post dose, mean",,systolic blood pressure,112 mmHg
Cc1nc2ccc(OCc3ccc(C(F)(F)F)cc3)cc2[nH]1,,"Balb/c mice, male, plasma","intravenous, 1 mg/kg",,terminal elimination rate constant,3.33e-05 ± 2.78e-05 s⁻¹
CC(C(=O)NCC(=O)NCC(CNC(=O)CNC(=O)C(C)N1CCN(CC(=O)[O-])CCN(CC(=O)[O-])CCN(CC(=O)[O-])CC1)(CNC(=O)CNC(=O)C(C)N1CCN(CC(=O)[O-])CCN(CC(=O)[O-])CCN(CC(=O)[O-])CC1)CNC(=O)CNC(=O)C(C)N1CCN(CC(=O)[O-])CCN(CC(=O)[O-])CCN(CC(=O)[O-])CC1)N1CCN(CC(=O)[O-])CCN(CC(=O)[O-])CCN(CC(=O)[O-])CC1.[Gd+3].[Gd+3].[Gd+3].[Gd+3] (stereo not drawn),,"cynomolgus monkey, bone","dose not given, day 58, PK group",,lanthanide tissue concentration,0.15 ± 0.12 nmol/g
C[C@@H]1CN(c2c(F)c(N)c3c(=O)c(C(=O)O)cn(C4CC4)c3c2F)C[C@H](C)N1,,"male Hartley guinea pigs, anaesthetized","intravenous, 30 mg/kg group, baseline before infusion",,heart rate,236 ± 0.8 beats/min
Cc1cc(OCCOCCC(F)(F)P(=O)(O)O)ccc1CCc1cnc2c(N)nc3cc(CCC(=O)O)ccc3c2c1,,"human, serum","intratumoral, 600 µg every 2 weeks, cycle 1 day 1",,AUC(tau),69.4 ng·h/mL
O=C(O)/C=C/c1cccc(O)c1,,human CSF,"concentration not given, mean",,CSF concentration,not detected
COc1cc(C(=O)NC2CCN(C)CC2)c(F)cc1Nc1ncc(C(F)(F)F)c(Oc2cccc3c2C(=O)N(C)C3)n1,,"human, Taiwanese, plasma","oral, 200 mg once daily multiple dose, geometric mean",,AUC(0-tau) steady state,30.9 µM·h
Cc1ccc([C@@H]2O[C@H](CO)[C@@H](O)[C@H](O)[C@H]2O)cc1Cc1ccc(-c2ccc(F)cc2)s1,,Japanese type 2 diabetes patients,"25 mg, day 1, 24 h urine collection",relative to: baseline,urinary chloride excretion change,23.7 mEq
CNc1ccc(-c2nc3ccc(O)cc3s2)cc1 [carbon-11 labelled],microPET/CT imaging,"APP/PS1 mouse, AD model, brain","intravenous, 20 min",,SUV,0.203 ± 0.067
NC(N)=NCCC[C@@H](N)C(=O)N[C@@H](CCCN=C(N)N)C(=O)N1CCC[C@H]1C(=O)N1C[C@H](O)C[C@H]1C(=O)NCC(=O)N[C@@H](Cc1cccs1)C(=O)N[C@@H](CO)C(=O)N1Cc2ccccc2C[C@@H]1C(=O)N1[C@H](C(=O)N[C@@H](CCCN=C(N)N)C(=O)O)C[C@@H]2CCCC[C@@H]21,popPK full model estimate,human,subcutaneous,,peripheral clearance (Q/F),0.396 L/h
Cl.[2H]C([2H])([2H])CC(=O)c1cnc(NC(=O)C2CC2)cc1Nc1cccc(-c2ncn(C([2H])([2H])[2H])n2)c1OC,geometric mean,human,"oral, 20 mg twice daily, day 1, fed, liquid, multiple dose",,half-life,4.28 h
CC(C)(C)c1ccc(O)c(CN(Cc2cc(C(C)(C)C)ccc2O)C2CCC(NC(N)=O)CC2)c1 (stereo not drawn),,"C57BL/6 mice, male, brain","intraperitoneal, 5 mg/kg, single dose",,terminal elimination rate constant,2.69e-05 s⁻¹
CCC(=O)N(CCC(c1ccc2c(c1)OCO2)c1ccccc1OC)Cc1ccccc1 (stereo not drawn),,"mouse, blood","i.p., 60 mg/kg twice daily, 2 weeks",,albumin,2.52 g/dL
CCOc1c([C@H](C)n2nc(C)c3c(N)ncnc32)cc(Cl)c(F)c1[C@@H]1CNC(=O)C1,item: QTcF change ≤30 ms,previously treated B-cell malignancy,"oral, 20 mg once daily, overall population",relative to: baseline,ECG observations,95.8%
Cc1cc(-c2nccc3c2ccn3CC(=O)Nc2ccc(-c3cnccn3)cn2)ccn1,,human,"5 mg once daily, multiple ascending dose",,subjects with Erythema adverse event,0%
CCN1CCN(Cc2ccc(Nc3ncc(F)c(-c4cc(F)c5nc6n(c5c4)[C@H](C)CCC6)n3)nc2)CC1,,"human, plasma","50 mg single dose, median",,Tmax,3.97 h
Cc1cc(C)c(CNC(=O)c2cc(Cl)c3c(c2C)O[C@@](C)([C@H]2CC[C@H](N(C)C)CC2)O3)c(=O)[nH]1,,relapsed/refractory NHL patients,"oral, 200 mg once daily, onset after cycle 1 day 1",,adverse event Anemia,45.8%
CNCc1ccc(-c2[nH]c3cc(F)cc4c3c2CCNC4=O)cc1,,patients,"oral, 600 mg twice daily, grade 1",,anaemia incidence,0%
O=C(O)CCCOc1ccc([18F])cc1-c1cc(-c2ccccc2C(F)(F)F)n(-c2ccccc2)n1,gamma counting,"male ddY mice, heart","intravenous, 2.1 MBq, 15 min",,radioactivity uptake,7.56 ± 0.87 SUV
CC[C@H](C)[C@H](NC(=O)[C@H](Cc1ccccc1)NC(=O)[C@H](CCC(=O)O)NC(=O)[C@H](CCCCNC(=O)COCCOCCNC(=O)COCCOCCNC(=O)CC[C@H](NC(=O)CCCCCCCCCCCCCCCCC(=O)O)C(=O)O)NC(=O)[C@H](C)NC(=O)[C@H](C)NC(=O)[C@H](CCC(N)=O)NC(=O)CNC(=O)[C@H](CCC(=O)O)NC(=O)[C@H](CC(C)C)NC(=O)[C@H](Cc1ccc(O)cc1)NC(=O)[C@H](CO)NC(=O)[C@H](CO)NC(=O)[C@@H](NC(=O)[C@H](CC(=O)O)NC(=O)[C@H](CO)NC(=O)[C@@H](NC(=O)[C@H](Cc1ccccc1)NC(=O)[C@@H](NC(=O)CNC(=O)[C@H](CCC(=O)O)NC(=O)C(C)(C)NC(=O)[C@@H](N)Cc1cnc[nH]1)[C@@H](C)O)[C@@H](C)O)C(C)C)C(=O)N[C@@H](C)C(=O)N[C@@H](Cc1c[nH]c2ccccc12)C(=O)N[C@@H](CC(C)C)C(=O)N[C@H](C(=O)N[C@@H](CCCNC(=N)N)C(=O)NCC(=O)N[C@@H](CCCNC(=N)N)C(=O)NCC(=O)O)C(C)C,12-lead Holter ECG,healthy humans,"subcutaneous, 1.5 mg once weekly, 42 h, steady state",relative to: placebo,QT change from baseline,-24.6 ms
CC(C)NCC(O)c1ccc(NS(C)(=O)=O)cc1 (racemic),,"male Hartley guinea pigs, anaesthetized","intravenous, 1 mg/kg over 10 min, after infusion",,heart rate,176 ± 0.4 beats/min
Cc1ccc(O)c(-n2nc3ccccc3n2)c1,exposure assessment,"human, age 2-3 years","concentration not given, spray sunscreen, 95th percentile",,"daily dermal uptake, percentile",3980 ng/kg body weight/day
C[C@H](CS)C(=O)N1CCC[C@H]1C(=O)O,,"male Hartley guinea pigs, anaesthetized","intravenous, 30 mg/kg over 10 min, after infusion",,heart rate,224 ± 0.4 beats/min
CN(CCC(=O)O)C(=O)c1ccc2c(c1)CC[C@@H]1[C@@H]2CC[C@]2(C)C(c3cncc(F)c3)=CC[C@@H]12,,"premenopausal women, endometriosis pain, serum","60 mg twice daily, visit 4, mean",relative to: baseline,indirect bilirubin change,0.62 mg/dL
O=C(O)CCC(=O)O.[2H]C([2H])([2H])Oc1cc(C)c2[nH]ccc2c1CN1CC[C@@H](C2CC2)C[C@H]1c1ccc(C(=O)O)cc1,multiple ascending dose,healthy Chinese subjects,100 mg twice daily,,subjects with TEAE Acne,0%
O=C(Nc1nc2cccc(-c3ccc(CN4CCS(=O)(=O)CC4)cc3)n2n1)C1CC1,item: asthenia,human rheumatoid arthritis patients,"oral, 200 mg once daily, 4 weeks, regardless of relatedness",,treatment-emergent adverse events,0%
CC(=O)N(C)[C@H]1CCN(C(=O)c2cnc3c(c2)C[C@](C)(c2ccc(F)cc2)N3)C1,item: painful arm,human,"oral, 30 mg once daily",,adverse event duration,3 days
Cn1cc(Nc2nccc(-c3ccc4c(c3)CN(C3COC3)CC[C@H]4NC(=O)c3cn(C(C)(C)C)nn3)n2)cn1,,"human, whole blood","300 mg twice daily, day 14",relative to: pre-dose baseline,non-switched memory B cell change,19.4%
C[C@@H](Nc1cc(F)cc(F)c1)c1cc(C(=O)N(C)C)cc2c(=O)cc(N3CCOCC3)oc12,item: autoimmune colitis,patients with advanced solid tumours,"oral, dose not given, dose expansion phase I",,treatment-related serious adverse events,0%
COc1cc(Nc2ncc3c(n2)-c2ccc(Cl)cc2C(c2c(F)cccc2OC)=NC3)ccc1C(=O)O,,patients,"oral, dose not given, grade 1, any attribution, with: pembrolizumab",,anaemia incidence,67%
CC(C)n1c(Nc2cccnc2)nc2cnc(Nc3ccc(N4CCN(C)CC4)cc3)nc21,,healthy male humans,"oral, dose not given, drug interaction study, all arms",,incidence of AST increased TEAE,11.9%
N#Cc1ccc2c(c1)[C@H]1CCCN(C(=O)c3ccc4[nH]cnc4c3)[C@H]1C2,,human,"360 mg, end of trial",relative to: baseline,cortisol level change,-35 nmol/L
C=CC(=O)NC1CCN(c2ncc3ncnc(Nc4ccc(Oc5ccc6c(c5)ncn6C)c(C)c4)c3n2)CC1,item: total radioactivity,"healthy male volunteers, plasma","intravenous, 100 µg, 14C microtracer, geometric mean",,AUC(0-tz),0.00301 µM·h
CN(C(=O)n1cnc(-c2cccnc2)c1)C1CCCCC1,,"Wistar rat, midbrain","oral, 10 mg/kg, 4 h, single dose",,tissue concentration,37.3 ± 6.6 ng/g
NC1(C(=O)N[C@@H](CCO)c2ccc(Cl)cc2)CCN(c2nc[nH]c3nccc2-3)CC1,,metastatic CRPC patients,"480 mg b.i.d., grade 3 to 4, treatment-related, with: enzalutamide 160 mg daily",,incidence of blood creatinine increased,0%
CO[C@H]1C[C@@H]2CC[C@@H](C)[C@@](O)(O2)C(=O)C(=O)N2CCCC[C@H]2C(=O)O[C@H]([C@H](C)C[C@@H]2CC[C@@H](O)[C@H](OC)C2)CC(=O)[C@H](C)/C=C(\C)[C@@H](O)[C@@H](OC)C(=O)[C@H](C)C[C@H](C)/C=C/C=C/C=C/1C,,healthy adult horses,"oral, 0.06 mg/kg, 8 h",,rectal temperature,37.7 ± 0.3 °C
CC(=O)Oc1ccccc1C(=O)O,,"male Hartley guinea pigs, anaesthetized","intravenous, 10 mg/kg group, baseline before infusion",,heart rate,267 ± 0.5 beats/min
Cc1c(Cl)c(C)[n+]([O-])c(Cl)c1-c1noc(-c2cc(O)c(O)c([N+](=O)[O-])c2)n1,,healthy Caucasian subjects,"oral, 50 mg, 10 days",,TEAEs causing discontinuation,13.3%
CNC(=O)c1ccc(-c2cnc3ncc(Cc4ccc5ncccc5c4)n3n2)cc1F,"CTCAE v4.0, any causality",human hepatocellular carcinoma patients,"oral, 600 mg twice daily, expansion cohort at RP2D",,peripheral edema incidence (all grades),55%
C=CC(=O)N1CCC[C@@H](n2nc(-c3ccc(Oc4ccccc4)cc3)c3c(N)ncnc32)C1,USP type II dissolution,powder,"120 min, pH 6.8",,dissolved amount,7.48%
CN(CCC#N)C1CCN(C(=O)Cn2cc(NC(=O)c3cnn4cccnc34)c(-c3cc(Cl)ccc3OC(F)F)n2)CC1,,"human, single ascending dose","15 mg, day 4",relative to: baseline,reticulocyte count change,11 10⁹/L
CCn1cc(C(=O)N2CCOCC2)c(=O)c2cc(NC3Cc4ccccc4C3)cnc21,,"human, fed","oral suspension, 600 mg/day twice daily, day 1, arithmetic mean",,Cmax,1120 ng/mL
CCN1/C(=C/C(C)=O)Sc2ccc(F)cc21,,cynomolgus monkey,"oral, 30 mg/kg, 6 h post-dose",,diastolic blood pressure,76 ± 3 mmHg
CCN1CCN(Cc2ccc(NC(=O)c3ccc(C)c(NC(=O)c4cncc(-c5cccs5)c4)c3)cc2C(F)(F)F)CC1,LC-MS/MS,"C57BL/6 mouse, plasma","intraperitoneal, 30 mg/kg single dose, 1 h",,mean plasma concentration,535 ng/mL
CCCCNCc1ccc(CNC(=O)c2csc3nc[nH]c(=O)c23)cc1,haemolysis,human red blood cells,"1 h, 37 °C",,EC50,> 100 µM
COc1cc2nccc(Oc3ccc(NC(=O)c4cc5c(n(-c6ccccc6)c4=O)CCCC5=O)nc3)c2cc1OC,,patients with relapsed/refractory AML,"oral, 10 mg once daily",,TEAEs leading to interruption,28.6%
O=C(O)C=Cc1ccc(O[C@@H]2O[C@H](C(=O)O)[C@@H](O)[C@H](O)[C@H]2O)cc1,,human CSF,"concentration not given, mean",,CSF concentration,not detected
COc1cc(C2=CCCc3c2ccc(OC)c3OC(C)c2cnc([N+](=O)[O-])n2C)cc(OC)c1OC (stereo not drawn),"non-enzymatic, no POR",phosphate buffer,"24 h, pH 7.4",,parent drug release,0%
COc1cc(C(=O)N2CCC3(CC2)CC(=O)c2c(cnn2C(C)C)C3)cc(-c2ccc(C(=O)O)cc2)n1,item: total cholesterol,"human, fasting serum","30 mg every 12 h, day 13, adjusted geometric mean",relative to: baseline,percentage change from baseline,-4.6%
O=C(COc1ccc(Cl)cc1)NC12CC(c3nnc([C@H]4C[C@@H](OC(F)(F)F)C4)o3)(C1)C2,item: Fatigue,human,"200 mg once daily, 28 (unit not given)",,adverse event incidence,22.2%
CNC(=O)c1ccc(-c2cnc3ncc(Cc4ccc5ncccc5c4)n3n2)cc1F,,Japanese patients,"oral, 400 mg, any grade",,Lymphopenia dose reduction/interruption,1%
O=C(O)c1ccccc1,,human CSF,"concentration not given, mean",,CSF concentration,not detected
COc1ccc(-n2nc(C(N)=O)c3c2C(=O)N(c2ccc(N4CCCCC4=O)cc2)CC3)cc1,,"human, plasma","oral, Final population PK model",,ED50,27.6 ± 6.3 mg
CO[C@H]1/C=C/O[C@@]2(C)Oc3c(C)c(O)c4c(O)c(c(/C=N/N5CCN(C)CC5)c(O)c4c3C2=O)NC(=O)/C(C)=C\C=C\[C@H](C)[C@H](O)[C@@H](C)[C@@H](O)[C@@H](C)[C@H](OC(C)=O)[C@@H]1C,,healthy human volunteers,"oral, 600 mg, itraconazole cohort, with: gepotidacin 1500 mg",,incidence of burning sensation,6%
O=C(O)Cc1ccc(O)c(O)c1,,human CSF,"concentration not given, mean",,CSF concentration,not detected

# Excerpt of the above:
SMILES,assay,system,conditions,how to read,quantity,value
N#Cc1ccc2c(c1)[C@H]1CCCN(C(=O)c3ccc4[nH]cnc4c3)[C@H]1C2,,human,"360 mg, end of trial",relative to: baseline,cortisol level change,-35 nmol/L
C=CC(=O)NC1CCN(c2ncc3ncnc(Nc4ccc(Oc5ccc6c(c5)ncn6C)c(C)c4)c3n2)CC1,item: total radioactivity,"healthy male volunteers, plasma","intravenous, 100 µg, 14C microtracer, geometric mean",,AUC(0-tz),0.00301 µM·h
CN(C(=O)n1cnc(-c2cccnc2)c1)C1CCCCC1,,"Wistar rat, midbrain","oral, 10 mg/kg, 4 h, single dose",,tissue concentration,37.3 ± 6.6 ng/g
